Values quoted from earlier work, collected from citations in different studies.
Lines come from different studies, so protocols differ. Numbers after ± are the reported error. Non-standard residues stand in square brackets, D forms with d. Where no end group is shown, it is not given here. No end group written: not given here.
F2: Prothrombin (F2, Bos taurus, UniProt P00735)
B1: disulfide; chain KPCTKLSKGWRGLCAPHKCSSYCIHHEGAYHGACLKNRHSKHYGCYCYYRHC (disulfide (positions not given here))
B2: cyclic, D-amino acids, lariat; chain T[dL]S[dD]GS (also: lariat or depsi (positions not given here))

For `B1`, the MIC was 1.5 µM (Botrytis cinerea; growth).
`rat amylin` gave a potency decrease of 15 fold (AMY1 receptor, RAMP1 W84A; reference: wild type).
For `bevacizumab`, “12-month survival rate” read 42% (patients with recurrent glioblastoma; dose not given, CheckMate-143 trial).
The IC50 of `human CCL11` is reported as 0.0119 µM (CCR3 E25A mutant).
For `YCAQTGCTVNWGRCWGCIGNNSGANYATGGKSGV`, the MIC was 8 µM (Pseudomonas aeruginosa; peptide).
For `abciximab`, the half-life was ~2 weeks (human, platelet-bound).
`YNCCHPMNNLCKE`: “dissociation rate constant” 0.002 s⁻¹ (streptavidin; peptide; bacterial display, OmpX fusion).
`VVIA` gave an IC50 of 16 ± 5 µM (Aβ42-induced neurotoxicity; inhibitor, MTT reduction; peptide, differentiated PC-12).
With `GTVLCCETCFLLSCCKIGCTCTRVV` the MIC was 32 µM (Pseudomonas aeruginosa; peptide).
`omiganan` gave an MIC of 25 µM (Enterococcus faecalis; KCTC 3511; literature value).
With `B2` the MIC was 44.4 µM (Mycobacterium bovis; BCG).
The MIC of `melittin` is reported as 6.3 µM (Salmonella typhimurium; SL1344).
With `TFELQGVVPRGVNL (V29F)` the Km improvement was 2.6 fold (F2; substrate; peptide; reference: FXIII AP 28-41, wild-type).
For `cyclopropyl methoxycarbonyl metomidate`, the metabolic half-life was 34.2 s (rat blood).
`FFFHIIHHIFHLIRRLLHRIRRRRRRHR` has an MIC of > 128 µM (Escherichia coli; peptide).
For `pegcetacoplan`, tolerability read “not toxic” (cynomolgus monkey; subcutaneous, 7, 28, 140 mg/kg/day daily, 28 days).
For `maraviroc`, “HIV RNA decay rate” read -0.58 ± 0.12 day⁻¹ (human, HIV infected; 300 mg twice daily).
The pKa of `AEQNPIYWARYADWLFTTPLLLLDLALLVDADEGT (pHLIP (Halobacterium salinarum))` is reported as 6.1 (NMR, measured: Asp25; peptide, lipid membrane; numbering of the source).
`VTATNAFNCRKERGFCRFGGCPFPLIHIGKCGPA` has an MIC of 128 µM (Pseudomonas aeruginosa; peptide).
`DFLAEGGGVRGPRV` gave a kcat of 39.3 ± 2.6 s⁻¹ (F2; substrate, HPLC; peptide).
`cathelicidin-BF` gave an MIC of 27 µg/mL (Escherichia coli).
`cucurbit[7]uril`: “highest non-toxic dose” 200 mg/kg (mice; intravenous).
`GSGCCGQGSCCGRWSGMKNIRVLWCGGCC` gave an MIC of > 128 µM (Escherichia coli; peptide).
`buforin II` has an MIC of 50 µM (Bacillus subtilis; KCTC 3068; literature value).
`enfortumab vedotin` has a half-life of 37 h (mouse ICR SCID).

Some of these lines once more:
With `B2` the MIC was 44.4 µM (Mycobacterium bovis; BCG).
The MIC of `melittin` is reported as 6.3 µM (Salmonella typhimurium; SL1344).
With `TFELQGVVPRGVNL (V29F)` the Km improvement was 2.6 fold (F2; substrate; peptide; reference: FXIII AP 28-41, wild-type).
For `cyclopropyl methoxycarbonyl metomidate`, the metabolic half-life was 34.2 s (rat blood).
